Measured values collected from several papers.
Lines come from different studies, so protocols differ. Values joined by “and” are separate records of one study, mostly repeats; a detail may differ. Numbers after ± are the reported error.

C=CC(=O)N1CC2(CCN(c3nc4c(c(-c5c(C)ccc6[nH]ncc56)n3)CCCC4)C2)C1 — ligand efficiency (GTPase KRas (KRAS, Homo sapiens, UniProt P01116, C118A/G12C); SOS1-catalysed nucleotide exchange, AlphaScreen): 0.18
CC[C@H](C)[C@@H]1NC(=O)[C@H](C)NC(=O)[C@H]([C@@H](C)CC)NC(=O)[C@H](CCC(N)=O)NC(=O)[C@H](C)NC(=O)[C@H](CCCNC(=N)N)NC(=O)[C@H](C(C)C)NC(=O)[C@H](CC(C)C)NC(=O)[C@H](CCC(=O)O)NC(=O)[C@H](CCCNC(=N)N)NC(=O)CNC(=O)[C@@H](NC(=O)[C@H](CC(C)C)NC(=O)[C@H](CCCCN)NC(=O)[C@@H](NC(=O)[C@@H](NC(=O)[C@H](CCC(=O)O)NC(=O)[C@H](CCC(=O)O)NC(=O)[C@H](CCSC)NC(=O)[C@H](Cc2c[nH]c3ccccc23)NC(=O)[C@H](CO)NC(=O)[C@@H](N)CC(=O)O)C(C)C)[C@@H](C)CC)CSSC[C@@H]2NC(=O)[C@@H](NC(=O)[C@H](CCCCN)NC(=O)[C@H](CC(N)=O)NC(=O)[C@H](C)NC(=O)[C@H](CC(C)C)NC(=O)[C@H](C)NC(=O)[C@H](CO)NC(=O)[C@H](Cc3ccc(O)cc3)NC(=O)[C@H](CC(C)C)NC(=O)[C@H](CCC(N)=O)NC(=O)c3ccc(-c4c5ccc(=[N+](C)C)cc-5oc5cc(N(C)C)ccc45)c(C(=O)[O-])c3)CSSC[C@H](NC(=O)CNC(=O)[C@H](C(C)C)NC(=O)[C@H](Cc3c[nH]cn3)NC2=O)C(=O)N[C@@H]([C@@H](C)O)C(=O)N[C@@H](CCCCN)C(=O)N[C@@H](CCCNC(=N)N)C(=O)N[C@@H](CO)C(=O)N[C@@H](CC(C)C)C(=O)N[C@@H](C)C(=O)N[C@@H](CCCNC(=N)N)C(=O)N[C@@H](Cc2ccccc2)C(=O)N[C@H](C(=O)O)CSSC[C@@H](C(=O)NCC(=O)N[C@@H](CCSC)C(=O)N[C@@H](CO)C(=O)N[C@H](C(=O)N[C@@H](Cc2c[nH]c3ccccc23)C(=O)N[C@@H](CO)C(=O)O)[C@@H](C)O)NC1=O — fast dissociation fraction (Relaxin receptor 1 (RXFP1, Homo sapiens, UniProt Q9HBX9, F76A/Y80A); binding, NanoBRET; concentration not given, added: relaxin 10 nM): 54%
N[C@H](CNC(=O)c1ccc(-c2ccccc2Br)s1)C(=O)O — Hill slope (Glutamate receptor ionotropic, NMDA 1, with GluN2C (Grin1, Rattus norvegicus, UniProt P35439); added: glutamate 300 µM): 1.35
CC[C@H](C)[C@H](NC(=O)[C@H](CCCCN)NC(=O)[C@@H](NC(=O)[C@H](CCCCN)NC(=O)[C@H](CCCCN)NC(=O)CNC(=O)[C@H](CO)NC(=O)[C@H](C)NC(=O)[C@@H](NC(=O)[C@H](Cc1c[nH]cn1)NC(=O)[C@H](Cc1ccccc1)NC(=O)CN)[C@@H](C)O)C(C)C)C(=O)N[C@@H](C)C(=O)N[C@@H](CCCCN)C(=O)N[C@@H](CCC(=O)O)C(=O)N[C@@H](CO)C(=O)N[C@@H](CC(C)C)C(=O)N[C@@H](CC(=O)O)C(=O)N[C@@H](CCCCN)C(=O)N[C@H](C(=O)N[C@@H](CCCCN)C(=O)N[C@@H](CC(N)=O)C(=O)N[C@@H](Cc1ccccc1)C(=O)N[C@@H](Cc1ccccc1)C(=O)O)C(C)C — ΔS (human RAD51 F86E monomer; ITC; pH 7.4, 25 °C, 5 µM protein): -14 cal/mol/K
O=C(O)[C@@H]1CCCN1c1ncnc2[nH]cnc12 (racemic) — log fold enrichment (DNA mismatch repair protein Msh6 (Homo sapiens, UniProt P52701); binding, affinity selection mass spectrometry; reference: other proteins in batch): 0.0713
C=CC(=O)N1CCC(COCC(=O)N2CCN(c3nc(-c4cnc(N)nc4C(F)F)nc(N4CCOC[C@@H]4C)n3)CC2)CC1 — remaining binding (Ankyrin repeat and protein kinase domain-containing protein 1 (ANKK1, Homo sapiens, UniProt Q8NFD2); KINOMEscan; 1 µM): 95%
CC(=O)c1c(C)c2cnc(Nc3ccc(N4CCN(CCCOc5ccc(CN6CCC(c7ccc8c(c7)CN(C7CCC(=O)NC7=O)C8=O)CC6)cc5)CC4)cn3)nc2n(C2CCCC2)c1=O (stereo not drawn) — Dmax (Cyclin-dependent kinase 6 (CDK6, Homo sapiens, UniProt Q00534); protein degradation, degrader, immunoblot; Jurkat; 4 h): 78%
O=C(Nc1cccc2c(=O)cc(-c3nnn[nH]3)oc12)c1ccc(OCCCCc2ccccc2)cc1 — inhibition (LRRC8A/LRRC8C (Homo sapiens, UniProt Q8IWT6+Q8TDW0, L134K/L136K); ion current, whole-cell patch clamp; HCT LRRC8-/- cells; 10 µM, -100 mV, L134K/L136K heteromers): 88.3% and 81.2% and 84.3% and 71.7% and 65.5% and 80.4%
O=C(O)c1ccc(Nc2ncc3c(n2)-c2ccc(Cl)cc2C(c2c(F)cccc2F)=NC3)cc1 — remaining activity (MAPKAP-K3(h); kinase activity; 1 µM): 104%
OC[C@H]1O[C@@H](Oc2cc3c(O)cc(O)cc3[o+]c2-c2cc(O)c(O)c(O)c2)[C@H](O)[C@@H](O)[C@@H]1O — Gibbs free energy (Albumin (ALB, Homo sapiens, UniProt P02768); binding, fluorescence quenching; 40 °C): -6.64 kcal/mol
CCCC[C@@H]1NC(=O)[C@H]([C@@H](C)CC)NC(=O)[C@H](Cc2ccc(O)cc2)NC(=O)[C@H](CC(C)C)NC(=O)[C@@H]2CCCN2C(=O)[C@@H](NC(=O)[C@H](CCCNC(=N)N)NC(=O)[C@H](CCCNC(=N)N)NC(C)=O)CSSC[C@@H](C(=O)N[C@@H](CCCNC(=N)N)C(=O)N[C@@H](CCCNC(=N)N)C(N)=O)NC(=O)[C@H](C(C)C)NC(=O)[C@@H]2CCCN2C(=O)[C@H](CC(=O)O)NC(=O)[C@H](Cc2ccc(O)cc2)NC1=O — lowest bound protein concentration (GTPase KRas, GDP-bound (KRAS, Homo sapiens, UniProt P01116, G12D); affinity selection mass spectrometry; mixture library 2, added: protein titration up to 5 µM; lower is stronger binding): 1.25 µM
[H]/N=C(/N)NCC(=O)O — normalised MST signal (Sodium- and chloride-dependent taurine transporter (SLC6A6, Homo sapiens, UniProt P31641, G62A); binding, microscale thermophoresis; 250 µM, room temperature, added: 50 nM labelled protein; higher = more binding): 0.0364
CCCCCCCCCCCCCCCCO — relative fluorescence (uncharacterized protein (Spodoptera exigua, UniProt F1CEY0); binding, 1-NPN competitive displacement; protein 2.0 µM, added: 1-NPN 20 µM; reference: 1-NPN without compound, lower = stronger binding): 67.5%
CC(=O)N[C@H](C(=O)N1C[C@H](O)C[C@H]1C(=O)NCc1ccc(-c2scnc2C)cc1)C(C)(C)SCCCCCCNC(=O)C[C@@H]1N=C(c2ccc(Cl)cc2)c2c(sc(C)c2C)-n2c(C)nnc21 — ΔG (von Hippel-Lindau disease tumor suppressor, with elongin B/C (VHL, Homo sapiens, UniProt P40337); ITC; 25 °C, binary): -8.85 ± 0.06 kcal/mol
CC1(F)CN(C(=O)Cn2c(=O)c(C(=O)NCc3ccc(Cl)cc3)cc3nc(N4CCN(CC(=O)O)C4=O)cnc32)C1 — Hill slope (DNA polymerase catalytic subunit (Human cytomegalovirus, UniProt P08546); enzyme activity, inhibitor): 0.91

Excerpt of the above:
CC(=O)c1c(C)c2cnc(Nc3ccc(N4CCN(CCCOc5ccc(CN6CCC(c7ccc8c(c7)CN(C7CCC(=O)NC7=O)C8=O)CC6)cc5)CC4)cn3)nc2n(C2CCCC2)c1=O (stereo not drawn) — Dmax (Cyclin-dependent kinase 6 (CDK6, Homo sapiens, UniProt Q00534); protein degradation, degrader, immunoblot; Jurkat; 4 h): 78%
O=C(Nc1cccc2c(=O)cc(-c3nnn[nH]3)oc12)c1ccc(OCCCCc2ccccc2)cc1 — inhibition (LRRC8A/LRRC8C (Homo sapiens, UniProt Q8IWT6+Q8TDW0, L134K/L136K); ion current, whole-cell patch clamp; HCT LRRC8-/- cells; 10 µM, -100 mV, L134K/L136K heteromers): 88.3% and 81.2% and 84.3% and 71.7% and 65.5% and 80.4%
